Measurements from different studies.
Each line is one published result; not all experiments were run side by side. Numbers after ± are the reported error.

| Compound | cell line | test | conditions | IC50 |
| --- | --- | --- | --- | --- |
| C=C1C(=O)OC2CC3=C[C@@H](C/C(C)=C/C(OC(=O)Cc4cccc5ccccc45)[C@H]12)OC3=O (some centres unmarked) | SK-N-MC | cell growth or viability, MTT | 24 h | 0.26 µM |
| CCC(CC)c1nc(-c2ccc(O)cc2O)cs1 | patient-derived fibroblasts | cell growth, PrestoBlue | 72 h | 14.4 µM |
| COc1cc(-c2nc3ccc(C(=O)NCCCN4CCN(c5ccccn5)CC4)cc3n2C2CCC2)cc(OC)c1OC | 293 T-BRE-Luc | reporter gene, inhibitor | 6 h, with: BMP2-induced BMP2 5 ng/mL | 0.94 µM |
| CC(=O)NCCCN(C)CCCNc1cccc2c1C(=O)c1cccc(NCCCN(C)CCCNC(C)=O)c1C2=O | HSC-2 | cell growth or viability, CCK-8 | 48 h | 0.5 µM |
| CCCCCCCCc1cc(CN(Cc2ccccn2)Cc2ccccn2)c(O)c(CN(Cc2ccccn2)Cc2ccccn2)c1 | CHO-K1 | cytotoxicity | 72 h | 17 ± 2 µM |
| COC(=O)[C@H]1[C@H]2C[C@H]3O[C@@]4(CCN3C[C@H]2C[C@@H](OC(=O)c2cc(OC)c(OC)c(OC)c2)[C@@H]1OC)C(=O)Nc1cc(OC)c(-c2ccc(C(F)(F)F)cc2)cc14 | SU-DHL-4 | cell growth or viability, trypan blue | 72 h | 1.73 µM |
| COc1ccc(-n2c(-c3cccc(OC)c3O)nc(-c3ccccc3)c2-c2ccccc2)cc1OC | human foreskin fibroblasts HFF | cell viability, colorimetric | 72 h | > 1000 µg/mL |
| Cc1cc(C)c(N[C](NCc2ccc(N[C](Nc3c(C(C)C)cccc3C(C)C)=[Pd-]([Cl])([Cl])[C]#[N+]c3c(C(C)C)cccc3C(C)C)cc2)=[Au][Cl])c(C)c1 | OVCAR-3 | cell growth or viability |  | 40 µM |
| FC(F)(F)c1n[nH]cc1-c1nc2ccc3[nH]ncc3c2c2c1CCCCC2 | Molm13 resistant FLT3-ITD D835Y | cell growth | 72 h | 0.0137 µM |
| C/C1=C\CC[C@@]2(C)O[C@H]2[C@H]2OC(=O)[C@@H](CSC(=S)N3CCN(CCO)CC3)[C@@H]2CC1 | KG-1a | cell growth or viability, MTT | 72 h | 8.1 µM |
| C/C(=N\N=c1\sc(/N=N/c2ccc([N+](=O)[O-])cc2[N+](=O)[O-])c(C)n1C)c1c(O)c2ccccc2oc1=O | BJ-1 skin fibroblasts | cytotoxicity, LDH release | 48 h | 27.1 ± 2.3 µM |
| CC(C)c1cccc(C(C)C)c1N=[C](NCc1cccc(N)c1)[AuH][Cl] | OVCAR-3 | cell growth or viability |  | 5 µM |
| Cc1c(C)n(-c2c(C(C)C)cccc2C(C)C)c(=[Se])n1-c1c(C(C)C)cccc1C(C)C.[Cl][Ag] | PSN1 | cell growth or viability, MTT | 72 h | 0.3 µM |
| Cc1nc(Nc2ncc(C(=O)Nc3c(C)cccc3Cl)s2)cc(N2CCN(CCOC(=O)[C@@H](N)CCCNC(=N)N)CC2)n1 | BV-173 | cell growth or viability, MTT | 72 h | < 5.12e-05 µM |
| CCc1ccc([C@H](C)CC(=O)N[C@@H]2O[C@H](COC(C)=O)[C@@H](OC(C)=O)[C@H](OC(C)=O)[C@H]2OC(C)=O)cc1 | L1210 | cell growth or viability | 48 h | 184 µM |
| CCCC(CCC)C(=O)[O][Pt]([NH2])([NH2])([Cl])([Cl])[O]C(=O)c1ccccc1OC(C)=O | 2008 cisplatin-sensitive | cytotoxicity, MTT | 72 h | 0.69 ± 0.08 µM |
| CNC(=O)C1CCN(c2ccccc2NC(=O)c2ccc(-c3cc(O)ccc3C)c(C)n2)CC1 | A673 | cell growth or viability, ATP luminescence | 72 h | 5.08 µM |
| CCC(C(=O)O)C1CCC(C)C(C(C)C(O)C(C)C(=O)C(CC)C2OC3(C=CC(NCc4cn(CCCO)nn4)C4(CCC(C)(C5CCC(O)(CC)C(C)O5)O4)O3)C(C)CC2C)O1 (centres unmarked) | HMLER CD24low/CD44high | cell proliferation | 72 h | 8.83 ± 1.1 µM |
| CN1CCN(c2ccc(Nc3ncc(Cl)c(Nc4ccccc4P(C)(C)=O)n3)cc2Br)CC1 | PC-9 | cell growth or viability, SRB | 72 h | 0.23 µM |
| CC(=O)Oc1ccccc1C(=O)[O][Pt]([NH2])([NH2])([Cl])([Cl])[O]C(=O)C(Cl)Cl | PSN1 | cell growth or viability, MTT | 72 h | 0.06 µM |
| Cc1cc2cc(C(=O)N(Cc3ccc(C(F)(F)F)cn3)[C@H](C)c3ncccn3)ccc2nc1N | MTAP-deleted cancer cell lines | cell viability | 6 days | < 0.1 µM |

| Compound | cell line | test | conditions | IC50 |
| --- | --- | --- | --- | --- |
| O=C(/C=C/c1ccc(-c2ccccc2)cc1)NC(=O)N[C@@H]1O[C@H](CO)[C@@H](O)[C@H](O)[C@H]1O | L1210 | cell growth or viability | 48 h | 206 µM |
| COC(=O)[C@H]1[C@H]2C[C@H]3O[C@@]4(CCN3C[C@H]2C[C@@H](OC(=O)c2cc(OC)c(OC)c(OC)c2)[C@@H]1OC)C(=O)Nc1cc(OC)c(-c2ccc(C(C)(C)C)cc2)cc14 | SU-DHL-4 | cell growth or viability, trypan blue | 72 h | 15.9 µM |
| Cc1cn([C@@H]2O[C@H](CO)[C@@H](O)[C@H](F)[C@H]2O)c(=O)[nH]c1=O | L1210 | cell growth or viability |  | > 200 µM |
| CC(C)c1cccc(C(C)C)c1N1CCN(c2c(C(C)C)cccc2C(C)C)C1=[Se].[Cl][Ag] | H157 spheroids | acid phosphatase | 72 h, 3D spheroid | 24.4 ± 1.5 µM |
| COc1cc(OC)c(-c2coc3c(CC=C(C)C)c(OC)cc(O)c3c2=O)cc1OC | MDA-MB-231, Huh-7, KKU100, NHDF cells | cell viability, MTT | 24 h | > 100 µM |
| CC(C)c1cccc(C(C)C)c1-n1c2c([n+](-c3c(C(C)C)cccc3C(C)C)[c]1[Au-][Cl])-c1cccc3cccc-2c13 | PSN1 | cell growth or viability, MTT | 72 h | 15 µM |
| CC1(N)CCN(c2nc(N(Cc3ccccc3)Cc3ccccc3)nc3c2ncn3Cc2ccccc2)CC1 | SNU1197 (KRAS G12D) | cell viability, WST | 72 h | 2.9 ± 0.3 µM |
| CN1CCN(/C=C/C(=O)c2ccc3[nH]c4ncc(-c5ccc(N6CCN(C)CC6)cc5)cc4c3c2)CC1 | parental Ba/F3 (IL-3 dependent) | cell proliferation, [3H]-thymidine incorporation |  | 0.48 µM |
| COc1cc(-c2cc(=O)c3c(O)cc(OC4OC(COC5OC(C)C(O)C(O)C5O)C(O)C(O)C4O)cc3o2)ccc1O (centres unmarked) | CEM/ADR5000 P-gp overexpressing | cell viability, resazurin reduction | 72 h | > 100 µM |
| CC(C)c1cccc(C(C)C)c1-n1ccn(-c2c(C(C)C)cccc2C(C)C)c1=[Se].[Cl][Ag] | LoVo-OXP (oxaliplatin-resistant) | MTT | 72 h | 3.6 ± 0.6 µM |
| O=C(Cc1ccc2ccccc2c1)N[C@H](Cc1ccccc1)C(=O)N[C@H](Cc1ccc(O)cc1)C(=O)N[C@H](Cc1ccccc1)C(=O)N[C@H](Cc1ccc(OP(=O)(O)O)cc1)C(=O)O | SAOS-2 | cell growth or viability, MTT |  | 132 µg/mL |
| CCCCCCCCCCCCCCCCCCCCCCCCCCCCCCOC(=O)/C=C/c1ccc(O)cc1 | J774.2 | NO release, inhibitor | LPS-stimulated | > 100 µg/mL |
| COc1ccc2cc([C@H](C)C(=O)[O][Pt]([NH2])([NH2])([Cl])([Cl])[O]C(=O)[C@@H](C)c3ccc4cc(OC)ccc4c3)ccc2c1 | LO-2 normal liver | cell growth, MTT | 48 h | 0.09 ± 0.01 µM |
| CSC(=S)NCc1cccnc1 | KG-1a | cell growth or viability, MTT | 72 h | 5.2 µM |
| CC1(C)Cc2c(-c3ccccc3)c(-c3ccc(Cl)cc3)c(CC(=O)NCC(=O)O)n2C1 | mouse Peritoneal macrophage | PGE2 release, inhibitor | LPS-stimulated | 0.78 µM |
| COC(C)(C)C(O)COc1c2ccoc2cc2oc(=O)ccc12 (centres unmarked) | L5178Y | cell growth or viability, MTT | 24 h | 56.4 µM |
| Cn1cnc(Cn2ccc3ccc(CNCc4[nH]c5ccccc5c4C4NC(=O)c5ccc(O)cc54)cc32)c1 (centres unmarked) | HCT-15 (KRAS G13D) | cell viability, CellTiter-Glo | 72 h | > 30 µM |
| CC(C)c1cccc(C(C)C)c1[N+]#[C][Pt-]([Cl])([Cl])=[C](Nc1cccc(CN[C](Nc2c(C(C)C)cccc2C(C)C)=[Au][Cl])c1)Nc1c(C(C)C)cccc1C(C)C | OVCAR-3 | cell growth or viability |  | > 100 µM |
| CC(C)c1cccc(C(C)C)c1-n1c(Cl)c(Cl)n(-c2c(C(C)C)cccc2C(C)C)c1=[Se].[Cl][Au] | PSN1 | cell growth or viability, MTT | 72 h | 0.9 µM |
| N#Cc1c(-c2ccc(Cl)cc2)cc(-c2cccc3ccccc23)nc1NNC(=O)Cc1ccccc1 | RKOp27 | cell growth or viability, MTT | 72 h | 0.016 µM |

A few entries again:
| Compound | cell line | test | conditions | IC50 |
| --- | --- | --- | --- | --- |
| CCCCCCCCCCCCCCCCCCCCCCCCCCCCCCOC(=O)/C=C/c1ccc(O)cc1 | J774.2 | NO release, inhibitor | LPS-stimulated | > 100 µg/mL |
| COc1ccc2cc([C@H](C)C(=O)[O][Pt]([NH2])([NH2])([Cl])([Cl])[O]C(=O)[C@@H](C)c3ccc4cc(OC)ccc4c3)ccc2c1 | LO-2 normal liver | cell growth, MTT | 48 h | 0.09 ± 0.01 µM |
| CSC(=S)NCc1cccnc1 | KG-1a | cell growth or viability, MTT | 72 h | 5.2 µM |
